Results collected from several papers.
Protocols differ between the studies behind these lines. “And” joins repeats or separate records; there may be more than shown. ± marks the error that the study gave. Converted amounts (≈) assume the structure as drawn.
Organism: Staphylococcus aureus

`CC(C)CCCCCCCCCCCCCCCc1cc(O)cc(O)c1` has an IC50 of > 200 µM (bacterial growth; MRSA USA300).
`CC[C@H](C)[C@H](NC(=O)[C@H](Cc1ccccc1)NC(=O)[C@@H](NC(=O)[C@H](Cc1ccccc1)NC(=O)[C@@H]1CCCN1C(=O)[C@@H](NC(=O)[C@H](C)N)[C@@H](C)CC)[C@@H](C)CC)C(=O)N[C@@H](Cc1c[nH]c2ccccc12)C(=O)N[C@@H](CCCNC(=N)N)C(=O)N[C@@H](CC(C)C)C(=O)N[C@@H](CC(C)C)C(=O)N[C@@H](CCCNC(=N)N)C(=O)N[C@@H](CCCCN)C(=O)NCC(N)=O` has an MBC of 1.88 µM (≈ 3.25 µg/mL) (ATCC 6051; 18 h, 37 °C).
The biofilm inhibition of `CN[C@H](CC(C)C)C(=O)N[C@H]1C(=O)N[C@@H](CC(N)=O)C(=O)N[C@H]2C(=O)N[C@H]3C(=O)N[C@H](C(=O)N[C@H](C(=O)O)c4cc(O)cc(O)c4-c4cc3ccc4O)[C@H](O)c3ccc(c(Cl)c3)Oc3cc2cc(c3O[C@@H]2O[C@H](CO)[C@@H](O)[C@H](O)[C@H]2O[C@H]2C[C@](C)(N)[C@H](O)[C@H](C)O2)Oc2ccc(cc2Cl)[C@H]1O` is reported as 95.2% (ATCC 33591 MRSA; 1×MIC).
`Cc1c2c(nn1C)CSCc1cc(n(C)n1)CSc1cc(c3ccccc3c1)OCCCc1c(C(=O)O)n(C)c3c-2c(Cl)ccc13`: “log2 fold change” 2.53 (label-free proteomics, measured: katA; SA113; concentration not given; relative to: untreated).
The FICI of `CC[C@H](C)[C@H](NC(=O)[C@H](CCCNC(=N)N)NC(=O)[C@H](CCCNC(=N)N)NC(=O)[C@H](CCCNC(=N)N)NC(=O)[C@H](CCCNC(=N)N)NC(=O)[C@H](CCCNC(=N)N)NC(=O)[C@@H](N)CCCNC(=N)N)C(=O)N[C@@H](CO)C(=O)N[C@@H](Cc1ccccc1)C(=O)N[C@@H](CC(C)C)C(=O)NCC(=O)N[C@@H](CO)C(=O)N[C@@H](CCCCN)C(=O)N[C@@H](CCCCN)C(=O)N[C@@H](CCCCN)C(=O)N[C@@H](CCCCN)C(=O)N[C@@H](CCCCN)C(=O)N[C@@H](CC(C)C)C(=O)N[C@@H](CC(C)C)C(=O)N[C@@H](CCCCN)C(=O)N[C@@H](CCCNC(=N)N)C(N)=O` is reported as 0.14 (checkerboard; unit not given, with: oritavancin; lower means synergy).
The biofilm inhibition of `O=C(O)c1cn(C2CC2)c2cc(N3CCNCC3)c(F)cc2c1=O` is reported as 91.2% (MRSA ATCC 33591; 1/4 × MIC).
The MBC of `CC[C@H](C)[C@H](NC(=O)[C@H](Cc1c[nH]c2ccccc12)NC(=O)[C@@H](NC(=O)[C@H](Cc1c[nH]c2ccccc12)NC(=O)[C@@H]1CCCN1C(=O)[C@@H](NC(=O)[C@H](C)N)[C@@H](C)CC)[C@@H](C)CC)C(=O)N[C@@H](Cc1c[nH]c2ccccc12)C(=O)N[C@@H](CCCNC(=N)N)C(=O)N[C@@H](CC(C)C)C(=O)N[C@@H](CC(C)C)C(=O)N[C@@H](CCCNC(=N)N)C(=O)N[C@@H](CCCCN)C(=O)NCC(N)=O` is reported as 3.75 µM (≈ 6.78 µg/mL) (ATCC 19609; 18 h, 37 °C).
With `CC(C)C[C@H](NC(=O)[C@H](CCCCN)NC(=O)OCC1c2ccccc2-c2ccccc21)C(=O)N[C@H](C(=O)N[C@@H](Cc1ccccc1)C(=O)N[C@@H](Cc1ccccc1)C(=O)N[C@@H](CCCCN)C(=O)NCC(=O)N[C@@H](Cc1ccccc1)C(=O)N[C@@H](C)C(=O)N[C@@H](Cc1c[nH]c2ccccc12)C(=O)N[C@@H](CC(N)=O)C(=O)N[C@H](C(=O)N[C@H]1CSSC[C@@H](C(=O)N[C@@H](Cc2c[nH]cn2)C(=O)N[C@@H](CCCNC(=N)N)C(=O)N[C@@H](CCCNC(=N)N)C(=O)N[C@@H](C)C(=O)N[C@@H](CC(N)=O)C(N)=O)NC(=O)[C@H](C(C)C)NC(=O)[C@H](CCCNC(=N)N)NC(=O)[C@H](C(C)C)NC(=O)CNC(=O)[C@H](CC(N)=O)NC(=O)[C@H](CCCNC(=N)N)NC(=O)[C@H](Cc2ccc(O)cc2)NC(=O)[C@H](C(C)C)NC1=O)C(C)C)C(C)C` the EC50 was 3.31 µM (bactericidal activity; ATCC 43300; 24 h).
`C=CC[C@@H]1c2ccc(OC)c(OC)c2CN2CCc3cc4c(cc3[C@H]12)OCO4` — result for “relative wound size”: 1.05 and 1.36 and 0.97 and 0.72 and 1.52 (P2rx7 A312V/A312V mice, skin wound infection; dose not given, day 2; relative to: day 0).
For `CN[C@H](CC(C)C)C(=O)N[C@H]1C(=O)N[C@@H](CC(N)=O)C(=O)N[C@H]2C(=O)N[C@H]3C(=O)N[C@H](C(=O)N[C@H](C(=O)O)c4cc(O)cc(O)c4-c4cc3ccc4O)[C@H](O)c3ccc(c(Cl)c3)Oc3cc2cc(c3O[C@@H]2O[C@H](CO)[C@@H](O)[C@H](O)[C@H]2O[C@H]2C[C@](C)(N)[C@H](O)[C@H](C)O2)Oc2ccc(cc2Cl)[C@H]1O`, “inhibition zone diameter” read 16 mm (ATCC 25923; 64 µg per disk).
`CC(C)[C@@H]1NC(=O)CNC(=O)[C@H](CC(N)=O)NC(=O)[C@H](CCCNC(=N)N)NC(=O)[C@H](Cc2ccc(O)cc2)NC(=O)[C@H](C(C)C)NC(=O)[C@@H](NC(=O)[C@@H](NC(=O)[C@H](CC(N)=O)NC(=O)[C@H](Cc2c[nH]c3ccccc23)NC(=O)[C@H](C)NC(=O)[C@H](Cc2ccccc2)NC(=O)CN)C(C)C)CSSC[C@@H](C(=O)N[C@@H](Cc2c[nH]cn2)C(=O)N[C@@H](CCCNC(=N)N)C(=O)N[C@@H](CCCNC(=N)N)C(=O)N[C@@H](C)C(=O)N[C@@H](CC(N)=O)C(N)=O)NC(=O)[C@H](C(C)C)NC(=O)[C@H](CCCNC(=N)N)NC1=O` gave an EC50 of 5.08 µM (bactericidal activity; ATCC 43300; 24 h).
`O=[N+]([O-])c1cc2c(ccc3c4cc([N+](=O)[O-])oc4ccc23)o1` gave an MIC90 of 4 µg/mL (≈ 13.4 µM) (REMA).
`C/C(=C\C(=O)OCCCCCCCC(=O)Nc1c2sscc-2[nH]c1=O)[C@@H](O)[C@@H]1OC[C@H](C/C=C/[C@@H](C)[C@H](C)O)[C@@H](O)[C@H]1O` — result for “MIC fold increase”: 5 to 10 fold (COL MRSA IleRS G593D P606S; relative to: mutant over wild type).
`Oc1c(Br)cc(Br)c2nc3ccccc3nc12` — result for “zone of inhibition”: 5.45 ± 0.34 cm² (MRSA 1707, DMSO stock; 10 µL of 10 mM, 16 h, without glutathione).
For `COc1ccc2c(ccc3oc([N+](=O)[O-])c(C)c32)c1`, the MIC90 was > 32 µg/mL (REMA).
`CC[C@H](C)[C@H](NC(=O)[C@H](C)N)C(=O)N[C@@H](CO)C(=O)NCC(=O)N[C@@H](CO)C(=O)N[C@@H](CC(C)C)C(=O)N[C@H](C(=O)N[C@H](C(=O)N[C@@H](CC(C)C)C(=O)N[C@@H](Cc1ccccc1)C(=O)NCC(=O)N[C@@H](Cc1ccc(O)cc1)C(=O)N[C@@H](CCCNC(=N)N)C(=O)N[C@@H](CCCCN)C(=O)N[C@@H](CCCNC(=N)N)C(=O)N[C@@H](CCCCN)C(=O)N[C@@H](CCCNC(=N)N)C(=O)N[C@@H](CCCCN)C(N)=O)[C@@H](C)O)C(C)C` has an FICI of 0.08 (checkerboard; unit not given, with: oritavancin; lower means synergy).
`CC[C@H](C)[C@H](NC(=O)[C@H](Cc1ccccc1)NC(=O)[C@@H](NC(=O)[C@H](Cc1c[nH]c2ccccc12)NC(=O)[C@@H]1CCCN1C(=O)[C@@H](NC(=O)[C@H](C)N)[C@@H](C)CC)[C@@H](C)CC)C(=O)N[C@@H](Cc1ccccc1)C(=O)N[C@@H](CCCNC(=N)N)C(=O)N[C@@H](CC(C)C)C(=O)N[C@@H](CC(C)C)C(=O)N[C@@H](CCCNC(=N)N)C(=O)N[C@@H](CCCCN)C(=O)NCC(N)=O` has an MBC of 1.88 µM (≈ 3.25 µg/mL) (ATCC 19609; 18 h, 37 °C).
With `OB(O)c1csc2ccccc12` the biofilm formation was 79.3% and 83% and 82% (crystal violet; USA300 wild type; 1 µM; relative to: wild type untreated).
`CC[C@H](C)[C@H](NC(=O)[C@H](Cc1c[nH]c2ccccc12)NC(=O)[C@@H](NC(=O)[C@H](Cc1ccc(O)cc1)NC(=O)[C@@H]1CCCN1C(=O)[C@@H](NC(=O)[C@H](C)N)[C@@H](C)CC)[C@@H](C)CC)C(=O)N[C@@H](Cc1ccc(O)cc1)C(=O)N[C@@H](CCCNC(=N)N)C(=O)N[C@@H](CC(C)C)C(=O)N[C@@H](CC(C)C)C(=O)N[C@@H](CCCNC(=N)N)C(=O)N[C@@H](CCCCN)C(=O)NCC(N)=O` gave an MBC of > 15 µM (ATCC 35556; 18 h, 37 °C).
`CCOC(=O)COc1ccc2ccc3oc([N+](=O)[O-])cc3c2c1` has an MIC90 of 4 µg/mL (≈ 12.7 µM) (REMA).
The MIC50 of `COc1ccc(CC2NCCc3cc(OC)c(OC)cc32)cc1OC.Cl` (centres unmarked) is reported as 1540 µM (24 h, 37 °C).
`COc1c([N+](=O)[O-])oc2ccc3ccccc3c12` has an MIC90 of > 32 µg/mL (REMA).
Under antibacterial activity, `C[C@@H](O)[C@H]1C(=O)N2C(C(=O)O)=C(S[C@@H]3CN[C@H](C(=O)N(C)C)C3)[C@H](C)[C@H]12` is recorded as “inactive” (USA300 FPR3757; concentration not given, 24 h).
